Measurements collected from several papers.
Values joined by “and” are separate records of one study, mostly repeats; a detail may differ. ± gives the spread as reported.
DYRK3: Dual specificity tyrosine-phosphorylation-regulated kinase 3 (DYRK3, Homo sapiens, UniProt O43781)
Sequence of UniProt O43781 (whole entry, looked up): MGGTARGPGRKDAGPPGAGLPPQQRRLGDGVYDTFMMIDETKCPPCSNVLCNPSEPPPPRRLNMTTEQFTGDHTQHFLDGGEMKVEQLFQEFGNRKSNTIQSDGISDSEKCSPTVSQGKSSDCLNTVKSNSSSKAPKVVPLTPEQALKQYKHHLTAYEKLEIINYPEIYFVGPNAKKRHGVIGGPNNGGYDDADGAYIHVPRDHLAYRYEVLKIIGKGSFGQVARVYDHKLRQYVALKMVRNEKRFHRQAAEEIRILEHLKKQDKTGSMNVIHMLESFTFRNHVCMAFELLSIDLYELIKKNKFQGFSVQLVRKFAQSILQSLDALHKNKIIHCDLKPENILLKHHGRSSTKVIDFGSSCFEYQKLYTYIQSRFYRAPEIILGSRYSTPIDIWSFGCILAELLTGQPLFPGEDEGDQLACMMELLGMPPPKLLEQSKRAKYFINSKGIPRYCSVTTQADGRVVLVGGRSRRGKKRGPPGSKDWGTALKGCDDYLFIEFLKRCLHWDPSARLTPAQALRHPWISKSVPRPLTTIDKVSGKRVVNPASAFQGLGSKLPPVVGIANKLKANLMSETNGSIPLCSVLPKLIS
PKN3: Serine/threonine-protein kinase N3 (PKN3, Homo sapiens, UniProt Q6P5Z2)
Sequence of UniProt P11678 (whole entry, looked up): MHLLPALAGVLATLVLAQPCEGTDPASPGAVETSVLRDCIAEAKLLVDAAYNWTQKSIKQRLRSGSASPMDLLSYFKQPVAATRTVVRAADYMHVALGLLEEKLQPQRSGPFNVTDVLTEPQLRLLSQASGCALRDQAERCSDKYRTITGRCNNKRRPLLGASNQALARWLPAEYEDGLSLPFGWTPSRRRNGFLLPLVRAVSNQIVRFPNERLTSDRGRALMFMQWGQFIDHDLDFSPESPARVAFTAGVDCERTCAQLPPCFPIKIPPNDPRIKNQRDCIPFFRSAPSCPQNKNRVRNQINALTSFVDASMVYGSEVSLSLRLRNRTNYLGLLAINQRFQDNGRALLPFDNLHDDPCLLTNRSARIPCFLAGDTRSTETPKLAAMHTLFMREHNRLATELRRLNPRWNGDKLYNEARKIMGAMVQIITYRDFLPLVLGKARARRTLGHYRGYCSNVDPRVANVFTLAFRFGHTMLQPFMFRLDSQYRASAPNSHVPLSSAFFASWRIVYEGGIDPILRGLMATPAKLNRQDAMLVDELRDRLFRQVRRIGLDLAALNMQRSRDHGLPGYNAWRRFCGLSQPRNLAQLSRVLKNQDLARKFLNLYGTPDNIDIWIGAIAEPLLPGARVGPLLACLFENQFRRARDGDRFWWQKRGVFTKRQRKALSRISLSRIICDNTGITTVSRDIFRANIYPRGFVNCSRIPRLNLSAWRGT
Sequence of UniProt Q6P5Z2 (whole entry, looked up): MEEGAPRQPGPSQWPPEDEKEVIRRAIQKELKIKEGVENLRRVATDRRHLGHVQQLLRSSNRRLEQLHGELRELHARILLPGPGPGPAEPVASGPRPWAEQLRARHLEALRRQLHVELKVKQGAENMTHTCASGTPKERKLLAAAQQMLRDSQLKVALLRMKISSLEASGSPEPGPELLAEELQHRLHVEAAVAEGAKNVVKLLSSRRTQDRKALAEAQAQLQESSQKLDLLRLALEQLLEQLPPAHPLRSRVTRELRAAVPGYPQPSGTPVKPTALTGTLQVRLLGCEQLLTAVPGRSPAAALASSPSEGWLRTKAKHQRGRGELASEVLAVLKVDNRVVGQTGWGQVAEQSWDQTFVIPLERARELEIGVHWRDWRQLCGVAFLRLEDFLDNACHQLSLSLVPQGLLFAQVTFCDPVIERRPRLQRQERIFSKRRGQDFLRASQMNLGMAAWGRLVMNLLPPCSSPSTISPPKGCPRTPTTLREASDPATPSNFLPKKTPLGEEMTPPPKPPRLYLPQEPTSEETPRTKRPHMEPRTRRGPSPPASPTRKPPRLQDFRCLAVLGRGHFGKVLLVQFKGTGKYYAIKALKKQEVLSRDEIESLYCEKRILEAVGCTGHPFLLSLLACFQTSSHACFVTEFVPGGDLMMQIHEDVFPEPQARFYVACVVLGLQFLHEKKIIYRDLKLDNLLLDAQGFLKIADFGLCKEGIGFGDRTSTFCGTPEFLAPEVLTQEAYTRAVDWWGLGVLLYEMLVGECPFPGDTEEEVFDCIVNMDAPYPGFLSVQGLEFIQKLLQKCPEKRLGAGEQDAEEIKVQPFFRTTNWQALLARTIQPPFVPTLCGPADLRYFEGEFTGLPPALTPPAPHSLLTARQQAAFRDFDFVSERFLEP
Sequence of UniProt P80192 (whole entry, looked up): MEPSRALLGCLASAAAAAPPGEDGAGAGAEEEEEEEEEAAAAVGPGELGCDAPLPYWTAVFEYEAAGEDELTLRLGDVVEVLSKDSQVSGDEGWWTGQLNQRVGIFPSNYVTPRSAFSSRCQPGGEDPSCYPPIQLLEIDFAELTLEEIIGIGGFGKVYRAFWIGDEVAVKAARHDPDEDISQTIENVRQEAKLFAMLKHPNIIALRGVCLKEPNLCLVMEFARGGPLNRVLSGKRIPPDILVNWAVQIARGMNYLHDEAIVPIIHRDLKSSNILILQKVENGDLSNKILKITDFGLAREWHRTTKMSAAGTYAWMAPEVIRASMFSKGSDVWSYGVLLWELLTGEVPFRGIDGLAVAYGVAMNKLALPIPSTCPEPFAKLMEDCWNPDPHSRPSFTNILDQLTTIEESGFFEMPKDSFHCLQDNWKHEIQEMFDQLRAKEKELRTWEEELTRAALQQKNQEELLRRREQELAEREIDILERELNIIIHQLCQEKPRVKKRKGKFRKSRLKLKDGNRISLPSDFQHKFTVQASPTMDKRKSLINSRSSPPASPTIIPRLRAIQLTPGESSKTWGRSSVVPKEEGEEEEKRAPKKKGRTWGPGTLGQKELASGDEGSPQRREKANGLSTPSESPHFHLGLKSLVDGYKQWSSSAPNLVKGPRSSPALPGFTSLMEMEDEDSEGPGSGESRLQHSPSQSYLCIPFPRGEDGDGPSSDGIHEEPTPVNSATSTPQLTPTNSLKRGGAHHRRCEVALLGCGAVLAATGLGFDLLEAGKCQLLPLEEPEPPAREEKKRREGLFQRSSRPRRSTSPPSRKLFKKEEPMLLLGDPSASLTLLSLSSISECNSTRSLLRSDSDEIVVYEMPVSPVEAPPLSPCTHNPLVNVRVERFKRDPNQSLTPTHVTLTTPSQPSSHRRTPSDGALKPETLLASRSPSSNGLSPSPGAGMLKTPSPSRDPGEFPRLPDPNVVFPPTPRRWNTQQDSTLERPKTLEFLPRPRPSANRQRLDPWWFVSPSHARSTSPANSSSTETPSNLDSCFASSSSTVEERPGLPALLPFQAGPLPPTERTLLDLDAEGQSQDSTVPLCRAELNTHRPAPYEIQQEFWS
Sequence of UniProt Q9Y2U5 (whole entry, looked up): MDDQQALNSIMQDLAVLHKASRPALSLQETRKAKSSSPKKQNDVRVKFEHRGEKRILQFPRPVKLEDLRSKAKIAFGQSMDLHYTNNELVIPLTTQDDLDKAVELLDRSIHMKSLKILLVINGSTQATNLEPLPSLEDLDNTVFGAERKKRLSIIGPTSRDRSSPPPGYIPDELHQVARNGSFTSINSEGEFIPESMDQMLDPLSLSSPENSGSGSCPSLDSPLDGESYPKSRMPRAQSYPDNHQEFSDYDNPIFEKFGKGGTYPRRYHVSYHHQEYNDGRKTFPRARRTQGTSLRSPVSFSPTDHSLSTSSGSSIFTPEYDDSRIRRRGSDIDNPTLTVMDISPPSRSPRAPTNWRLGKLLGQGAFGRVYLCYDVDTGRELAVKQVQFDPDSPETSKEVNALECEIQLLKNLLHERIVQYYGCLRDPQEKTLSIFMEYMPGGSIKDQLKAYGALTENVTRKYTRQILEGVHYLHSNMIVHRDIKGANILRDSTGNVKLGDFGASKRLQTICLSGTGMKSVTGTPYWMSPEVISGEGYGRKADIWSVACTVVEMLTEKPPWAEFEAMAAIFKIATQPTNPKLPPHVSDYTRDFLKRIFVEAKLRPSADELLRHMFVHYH
Sequence of UniProt Q14164 (whole entry, looked up): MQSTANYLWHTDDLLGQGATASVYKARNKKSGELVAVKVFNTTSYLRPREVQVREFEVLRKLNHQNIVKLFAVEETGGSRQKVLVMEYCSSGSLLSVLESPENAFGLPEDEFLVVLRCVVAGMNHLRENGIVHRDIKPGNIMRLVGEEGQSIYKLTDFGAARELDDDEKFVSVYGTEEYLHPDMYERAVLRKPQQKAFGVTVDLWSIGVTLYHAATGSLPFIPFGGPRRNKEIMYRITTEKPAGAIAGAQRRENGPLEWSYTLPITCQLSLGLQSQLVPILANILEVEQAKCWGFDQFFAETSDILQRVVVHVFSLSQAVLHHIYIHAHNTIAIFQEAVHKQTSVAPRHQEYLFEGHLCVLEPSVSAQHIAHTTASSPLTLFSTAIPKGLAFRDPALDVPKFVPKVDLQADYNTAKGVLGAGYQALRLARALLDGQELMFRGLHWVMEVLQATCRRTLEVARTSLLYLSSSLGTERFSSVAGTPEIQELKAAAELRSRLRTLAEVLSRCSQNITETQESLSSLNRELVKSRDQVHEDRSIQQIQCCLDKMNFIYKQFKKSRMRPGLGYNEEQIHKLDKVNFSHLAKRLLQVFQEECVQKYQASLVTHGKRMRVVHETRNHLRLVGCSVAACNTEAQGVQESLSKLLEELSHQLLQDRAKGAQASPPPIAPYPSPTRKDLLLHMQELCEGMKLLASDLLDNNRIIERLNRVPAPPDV

Compound	tested on	test	system	conditions	scale	quantity	result
O=C(NC1CCC1)c1ccc2nc(-c3cccc(NS(=O)(=O)NCCN4CCCCC4)c3)cn2c1	MAP3K9 (Homo sapiens, UniProt P80192)	enzyme activity	–	10 µM	–	remaining activity	100%
COc1cc(Nc2ncc3c(n2)-c2ccc(Cl)cc2C(c2c(F)cccc2OC)=NC3)ccc1C(=O)O	PRKCZ	kinase activity	–	1 µM	–	remaining activity	106%
CC(C)C[C@H](NC(=O)C[C@H](O)[C@H](CC(C)C)NC(=O)[C@H](Cc1c[nH]cn1)NC(=O)CNC(=O)[C@@H](NC(=O)[C@H](C)NC(=O)[C@H](Cc1c[nH]c2ccccc12)NC(=O)[C@H](CCC(N)=O)NC(=O)[C@@H](Cc1ccccc1)NC(=O)COCCOCCNC(=O)CCC(C(=O)O)N1CCN(CC(=O)O)CCN(CC(=O)O)CCN(CC(=O)O)CC1)C(C)C)C(N)=O (stereo partly shown) [lutetium-177 labelled]	–	–	BALB/c nu/nu mice, female, skin	100 pmol, 30 min, time course 0.5 h, with: PA 300 µg	–	tissue uptake	1.6 ± 0.4 %ID/g
COc1cc(-c2cncc3c2CN(C)Cc2cc(N4CCNCC4)ccc2-3)cc(OC)c1OC	DYRK3	kinase activity	–	1 µM, human enzyme, with: ATP 10 µM	baseline: DMSO control	remaining activity	108%
O=C(O)c1cc(O)c2c(c1)C(=O)c1cccc(O)c1C2=O	HK-2 co-cultured with HepaRG	MTT	–	133.33 µM, 48 h	baseline: untreated control	viability	43 ± 5.03%
O=C(O)c1ccc(Nc2ncc3c(n2)-c2ccc(Cl)cc2C(c2c(F)cccc2F)=NC3)cc1	PKCη(h)	kinase activity	–	1 µM	–	remaining activity	120%
CC#CC(=O)N1CCC[C@H]1c1nc(-c2ccc(C(=O)Nc3ccccn3)cc2)c2c(N)nccn12	PKN3	kinase activity, inhibitor, HotSpot radiometric	–	100 nM, with: ATP 10 µM	–	remaining activity	98.2 ± 1.1%
Cc1cc(Nc2cc(N3CCN(C)CC3)nc(Sc3ccc(NC(=O)C4CC4)cc3)n2)[nH]n1	LIM domain kinase 1 (LIMK1, Homo sapiens, UniProt P53667)	kinase activity, KinaseProfiler	–	0.03 µM, species human	baseline: control	remaining activity	91%
C=CC(=O)N1CCC[C@@H](n2nc(-c3ccc(Oc4ccccc4)cc3)c3c(N)ncnc32)C1	DYRK3	–	–	1 µM	–	remaining activity	49.9%
O=C1NC(=O)/C(=C/c2ccc(-c3ccc(F)cc3O)o2)S1	IKBKE (Homo sapiens, UniProt Q14164)	enzyme activity	–	10 µM	–	remaining activity	40%
COc1cc(N2CCN(C)CC2)ccc1Nc1nc(N)n(C(=S)NCc2c(Cl)cccc2Cl)n1	MAP3K2 (Homo sapiens, UniProt Q9Y2U5)	enzyme activity	–	10 µM	baseline: control	remaining activity	1.4%
COc1cc2c(c(OC)c1OC)C(=O)c1c(cc(C)c(O)c1OC)C2=O	HK-2 co-cultured with HepaRG	MTT	–	33.33 µM, 48 h	baseline: untreated control	viability	65.3 ± 4.86%
Cn1cc(-c2ccc(-c3cncc(Cl)c3N3CCC4(CCNC4=O)CC3)cc2)cn1	COLO 205	gene expression, microarray, item: CD55 mRNA	–	concentration not given, 6 h	baseline: untreated cells	log2 fold change	1.56
COc1ccc(F)cc1C(=O)NCc1ccc(-c2nn([C@@H](C)C(F)(F)F)c(N)c2C(N)=O)cc1	PKN3	kinase activity, inhibitor, HotSpot radiometric	–	100 nM, with: ATP 10 µM	–	remaining activity	84.5 ± 1.6%
COc1cc(F)ccc1-c1ncnc(Nc2cccc(C[S@](C)(=N)=O)c2)n1	ZAP70 (Homo sapiens, UniProt P43403)	kinase activity	–	10 µM, with: 10 µM ATP	–	remaining activity	98%
NC/C(=C\F)COc1cccc(Cn2c(=S)[nH]c(=O)c3[nH]cnc32)c1	Eosinophil peroxidase (Homo sapiens, UniProt P11678)	H2O2 electrode	–	5 µM	baseline: control	remaining activity	158% and 164% and 126%

Excerpt of the above:
Compound	tested on	test	system	conditions	scale	quantity	result
Cc1cc(Nc2cc(N3CCN(C)CC3)nc(Sc3ccc(NC(=O)C4CC4)cc3)n2)[nH]n1	LIM domain kinase 1 (LIMK1, Homo sapiens, UniProt P53667)	kinase activity, KinaseProfiler	–	0.03 µM, species human	baseline: control	remaining activity	91%
